Experimental data gathered from unrelated publications.
Every numbered part comes from another study and shows a few of its results, in no order. Substitutions count along the parent as printed.

Sample 1
Target: CCNF, cyclin fold, Cln2 fusion (human)
Method: yeast growth competition, sequencing
Sample: yeast
Setting: strong parent motif
Baseline: not given
Direction: higher = stronger binding
Starting sequence: WEE1 docking peptide (human); HKTFRKLRLFDTP; partner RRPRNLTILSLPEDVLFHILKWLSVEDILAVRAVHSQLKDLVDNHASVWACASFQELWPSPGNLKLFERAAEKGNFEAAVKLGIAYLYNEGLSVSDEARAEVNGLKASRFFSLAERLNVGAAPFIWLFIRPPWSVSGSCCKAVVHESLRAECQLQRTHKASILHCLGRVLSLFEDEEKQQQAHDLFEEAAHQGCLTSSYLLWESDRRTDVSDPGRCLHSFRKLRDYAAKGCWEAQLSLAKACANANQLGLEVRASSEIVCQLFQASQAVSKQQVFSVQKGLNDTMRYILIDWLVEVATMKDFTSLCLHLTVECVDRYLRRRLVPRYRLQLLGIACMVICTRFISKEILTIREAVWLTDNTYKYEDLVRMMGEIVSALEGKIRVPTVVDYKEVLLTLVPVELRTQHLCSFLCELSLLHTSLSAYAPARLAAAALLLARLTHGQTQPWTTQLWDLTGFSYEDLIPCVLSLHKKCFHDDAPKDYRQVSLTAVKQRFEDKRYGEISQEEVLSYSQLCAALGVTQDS
| Variant | normalised enrichment score |
| --- | --- |
| GKTFRKLRLFDTP [H1G] | 1.96 |
| HKTFRKLRRFDTP [L9R] | 0.611 |
| HKTFRKLSLFDTP [R8S] | 1.81 |
| HKTFAKARLFDTP [R5A L7A] | 1.59 |
| HKTFRKLVLFDTP [R8V] | 3.56 |
| HHTFRKLRLFDTP [K2H] | 1.92 |
| HKTFRKLRLFSTP [D11S] | 1.87 |
| HKTDRKLRLFDTP [F4D] | 1.68 |
| HKTSRKLRLFDTP [F4S] | 2.69 |
| HKTFRKLRLFHTP [D11H] | 0.642 |
| HKTFRKLRLFTTP [D11T] | 1.7 |
| HKTFRKLPLFDTP [R8P] | 0.568 |
| HKTFRKLRLFDCP [T12C] | 1.72 |
| HKTFWKLRLFDTP [R5W] | 1.67 |
| HKNFRKLRLFDTP [T3N] | 1.5 |

Sample 2
Target: ABI1, truncated, D143A, DHFR fusion (Arabidopsis thaliana)
Method: DHFR PCA, deep sequencing
Sample: yeast
Setting: methotrexate growth selection, single substitutions
With: (+)-ABA 2500 µM
Baseline: wild-type fitted maximum
Direction: higher = stronger binding
Starting sequence: PYL1, truncated, DHFR fusion (Arabidopsis thaliana); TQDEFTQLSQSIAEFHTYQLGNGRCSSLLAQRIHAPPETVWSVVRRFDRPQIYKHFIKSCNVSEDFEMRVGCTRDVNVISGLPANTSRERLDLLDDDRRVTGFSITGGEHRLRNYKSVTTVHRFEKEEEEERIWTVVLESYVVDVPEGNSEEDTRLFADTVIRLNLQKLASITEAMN; partner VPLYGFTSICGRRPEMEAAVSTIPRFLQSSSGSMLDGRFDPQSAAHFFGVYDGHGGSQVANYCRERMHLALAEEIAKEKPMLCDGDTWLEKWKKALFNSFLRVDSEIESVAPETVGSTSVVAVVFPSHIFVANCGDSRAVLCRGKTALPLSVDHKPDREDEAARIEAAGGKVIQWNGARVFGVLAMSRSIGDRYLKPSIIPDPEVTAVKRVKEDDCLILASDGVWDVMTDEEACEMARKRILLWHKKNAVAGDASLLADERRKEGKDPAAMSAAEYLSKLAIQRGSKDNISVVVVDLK
| Variant | relative binding score [%] |
| --- | --- |
| Q7F | 81.1 |
| I57H | 66 |
| L82Q | 81 |
| L28V | 94.4 |
| R88I | 101 |
| L8P | 79.4 |
| P146N | 78.2 |
| G107I | 55.6 |

Sample 3
Target: RNA binding protein fox-1 homolog 2, RRM domain, GST-SBP tag (RBFOX2, Homo sapiens, UniProt O43251-10, residues 100-194)
Method: RNA Bind-n-Seq
Form: RNA
Sample: in vitro
Concentration: 365 nM
Setting: natural RNA segment, single round, ends assumed
Baseline: no-protein control
Direction: higher = stronger binding
All sequences stand within: GGGAGUUCUACAGUCCGACGAUC … UGGAAUUCUCGGGUGCCAA
Target sequence (chain): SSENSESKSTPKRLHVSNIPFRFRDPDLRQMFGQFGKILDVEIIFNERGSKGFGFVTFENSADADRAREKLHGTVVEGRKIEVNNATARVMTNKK
| Oligonucleotide | RBNS enrichment (R) |
| --- | --- |
| GGGCGUGUGUGACACUGAUGAGUUUCACUGUACUGCAUGUGACUUCUCCCCUGCCCUUCCUCCUGAUGGAGUGUGCAGACAGCCAUGCGUGGCCACGGGGGCAGUGUGAG | 24.1 |
| GAGAGUUAGACAGCAACUUACCUACUCUGAAGUUUUCUACAACAAAAAAAGAGUUGAGUGAAUCUGUUUACAUUUAGAAUAAUGUUUUUUUCUUCAAGAGACGCAAUUGC | 0.405 |
| GGUAUAGCUUGGGUCCCUUUUCCUGCAAGGCCCCAUGGGGCAGAAUAUAAUAAAUAUUCUGAGUGAGAGUGUGGUCUUUUUCUGAUCUUCCUCAGCUUCCGUAAGUUGCA | 1.22 |
| GCACACCCCCUCUCUGUCCUCAGACUGCAGUCCACACGUGCAACUUUUCUGUUUGCACGUGUUUUAUUAAUCAGCAUACUCCUUUUCUGUUUGGAUUUAUAUCCCUCUAA | 0.742 |
| UUUUAGGUCUGCUGAAGUCUGGUGUUCUUUGCUCCUUCUGCAAUCUUGAAAUUGGGGUUUGCUUUAGAGCACAAACAUAAGUCUGUGUUAGGUGGACUUAAAUCCCAACA | 0.31 |
| UGUACCUCCUCCCUUUGGUGACCUGAAGUCACUGUGACAGUUCUCCAGGAAGGAGGAGCUUCCUACUUUUGAGUUUCUCUGUGGAAAUAAAACAUGAAUCUUGUUUCCCU | 0.262 |
| AAAGAAUUGAGAUUGUGUAUGGCAACCGUUAAUGAGGACAGCGCCUGAUGCCUUUUGUACCGAGGAAGAUAAUUGCCUCUUGUUUGACAAGUAGAGUUUAGUAGGUUAUU | 2.58 |
| AAGAGGAGCUGGUGGCUGCCAGCCCUGGGGCCCGGCACAGGCCUGGGCCUUCCCCUUCCCUCAAGCCAGGGCUCCUCCUCCUGUCGUGGGCUCAUUGUGACCACUGGCCU | 0.318 |
| CCUCCCCUCCCCCGAGGGCAGACCCAGCCAGCUGCUAAGCUCUGCAGCUCCCCAGUGGACAGUGUCAUUGUGCCCAGAGUGCUGCAAGGUGAGGCCUGCUGUGCUGCCCG | 0.282 |
| AGAAACGAGACUUGGCGGCACCAUGAGAAUGGAGAGAGAGAGAGCAAAGAAAGAAACAGCCUUUAAAAGAACUUUCUAAGGGUGGUUUUUGAACCUCGCUGGACCUUGUA | 0.948 |
| CCUACUGCCUCUCCAGCACUUCUCUCUUCAAGCGGCGACCCCCUACCCUCCCAGCGAGUUGCGCUGGGAGACGCUGGCGCCAGGGCCUGCCGGCGCGGGGAGGAAAGCAA | 0.446 |

Single results of other studies
| Molecule | target | test | system | conditions | scale | measurement | result |
| --- | --- | --- | --- | --- | --- | --- | --- |
| PhoQ, residues 284 288 289 292 302 303 AEGLLW | PhoP, residues 12 14 15 18 19 GHCSL (Escherichia coli, UniProt P23836) | Sort-seq, refers to: YFP reporter | E. coli | PhoQ-PhoP variant library, with: 10 µM Mg2+ | baseline: high Mg2+ state, higher = stronger signaling | fold induction | 3.77 |

Excerpt of the above (sample 2):
| Variant | relative binding score [%] |
| --- | --- |
| L28V | 94.4 |
| R88I | 101 |
| L8P | 79.4 |
| P146N | 78.2 |
| G107I | 55.6 |
